Measurements pooled from the literature.
Each line is one published result; not all experiments were run side by side. Several values in a cell are separate wells, animals, samples, runs or records. ± gives the spread as reported.

Compound	tested on	assay	test system	setting	how to read	quantity	value
O=C(NCCN1CCCC1=O)c1ccc([C@H]2[C@@H](F)[C@@H](F)C[C@@H](F)[C@H]2F)cc1	–	hepatocyte stability	cryopreserved rat hepatocytes	1 µM	–	hepatic clearance	10 mL/min/kg
O=C(O)CNC(=O)Cc1ccccc1	–	–	ventricular cardiomyocytes, C57BL/6 mouse	dose not given, 0.036 s	–	sarcomere length	1.72 µm
COc1cc(Nc2ncc3c(n2)-c2ccc(Cl)cc2C(c2c(F)cccc2OC)=NC3)ccc1C(=O)O	–	–	mouse, OS-1 osteosarcoma xenograft	20.8 mg/kg	direction not given	median response score	4
NC(=O)CCNC(=O)c1ccc([C@H]2[C@@H](F)[C@@H](F)C[C@@H](F)[C@H]2F)cc1	–	hepatocyte stability	cryopreserved mouse hepatocytes	1 µM	–	hepatic clearance	21 mL/min/kg
OC(CCN1CCCCC1)(c1ccccc1)C1CC2C=CC1C2 (stereo not shown)	–	resting-state EEG	healthy elderly humans	oral, 4 mg, eyes closed, LS mean	–	EEG Alpha1-power Pz-O2	12.2 µV²
N#Cc1ccc2c(-c3ccncc3)c(-c3ccc(F)cc3)nn2c1	–	kinase binding, competitor, MIB/MS competition, refers to: RIM8	Candida albicans cell lysate	1 µM	relative to: DMSO	log2 fold change	-0.172
C[C@H](Oc1ccc(Br)cc1-c1ccon1)C(=O)O	–	muscle velocity recovery cycle	human, tibialis anterior muscle	200 mg once daily, first response peak at 15 Hz, multiple ascending dose	–	difference from placebo	0.618%
O=C(O)CSc1nnc(Br)n1-c1ccc(C2CC2)c2ccccc12	–	–	mouse, chronic hyperuricaemia model, serum	dose not given	–	blood urea nitrogen	12.4 mM and 8.74 mM and 11.2 mM and 15.5 mM and 19.9 mM and 12.5 mM
c1ccc(-c2n[nH]cc2-c2ccnc3ccccc23)nc1	–	kinase binding, competitor, MIB/MS competition, refers to: CEK1	Candida albicans cell lysate	10 µM	relative to: DMSO	log2 fold change	0.766
N#Cc1ccc2c(c1)[C@H]1CCCN(C(=O)c3ccc4[nH]cnc4c3)[C@H]1C2	–	refers to: HDL	human, Phase II trial	oral, 240 mg once daily, day 28, adjusted mean, SE	–	change from baseline	-0.85 mg/dL
N#Cc1ccn2c(-c3ccncc3)c(-c3ccc(F)cc3)nc2c1	–	kinase binding, competitor, MIB/MS competition, refers to: RIO2	Candida albicans cell lysate	100 nM	relative to: DMSO	log2 fold change	-0.234
CSCCNc1nc(SCCC(F)(F)F)nc2c1ncn2[C@@H]1O[C@H](COP(=O)(O)OP(=O)(O)C(Cl)(Cl)P(=O)(O)O)[C@@H](O)[C@H]1O	–	platelet aggregation, light transmission aggregometry	human patients, platelet-rich plasma	dose not given, 4 to 6 h, inhibition threshold 90%, together with: TRAP 15 µM	–	patients with inhibition above threshold	0%
CC(C)NCC(O)c1ccc(O)c(O)c1 (stereo not shown)	–	–	ventricular cardiomyocytes, C57BL/6 mouse	dose not given, 0.604 s	–	sarcomere length	1.68 µm
C[C@H]1C[C@H]2CSC(N)=N[C@@]2(c2nc(NC(=O)c3ccc(OC(F)F)cn3)cs2)CO1	–	refers to: Aβ1-40	healthy adults, plasma	12 mg single dose, 4 h post-dose	relative to: placebo	percent change from baseline	-57.5%
Cc1n[nH]c2ccc(-c3cc(OC[C@@H](N)Cc4ccccc4)cnc3-c3ccoc3)cc12	–	kinase binding, competitor, MIB/MS competition, refers to: RTK1	Candida albicans cell lysate	10 µM	relative to: DMSO	log2 fold change	-1.04
Cn1cc(-c2ccc(-c3cncc(Cl)c3N3CCC4(CCNC4=O)CC3)cc2)cn1	COLO 205	gene expression, microarray, refers to: SQSTM1 mRNA	–	concentration not given, 2 h	relative to: untreated cells	log2 fold change	2.44
C[C@H]1O[C@@H](O[C@H]2CC[C@@]3(C)[C@@H](CC[C@]4(C)[C@@H]3C=C[C@]35OC[C@@]6(CCC(C)(C)C[C@H]63)[C@@H](O)C[C@]54C)[C@]2(C)CO)[C@H](O)[C@@H](O[C@@H]2O[C@H](CO)[C@@H](O)[C@H](O)[C@H]2O)[C@H]1O	–	–	Mus musculus, chronic-plus-binge ethanol-fed, liver	oral, 15 mg/kg/day, 168 h, dosed for 7 days	–	hepatic triglycerides	0.0888 mmol/g protein and 0.0721 mmol/g protein and 0.0825 mmol/g protein and 0.0831 mmol/g protein and 0.0953 mmol/g protein and 0.0907 mmol/g protein
CC(C)C[C@H](NC(=O)C[C@H](O)[C@H](CC(C)C)NC(=O)[C@H](Cc1c[nH]cn1)NC(=O)CNC(=O)[C@@H](NC(=O)[C@H](C)NC(=O)[C@H](Cc1c[nH]c2ccccc12)NC(=O)[C@H](CCC(N)=O)NC(=O)[C@@H](Cc1ccccc1)NC(=O)COCCOCCNC(=O)CCC(C(=O)O)N1CCN(CC(=O)O)CCN(CC(=O)O)CCN(CC(=O)O)CC1)C(C)C)C(N)=O (stereo partly shown) [lutetium-177 labelled]	–	–	female BALB/c nu/nu mice, spleen	intravenous, 100 pmol, 24 h, together with: PA 300 µg	–	tissue uptake	0.03 ± 0.01 %ID/g
NC(=O)c1cnc2[nH]ccc2c1N[C@@H]1[C@@H]2CC3C[C@H]1C[C@@](O)(C3)C2	–	flow cytometry, refers to: CD4+ naive T cells	Japanese healthy subjects, peripheral blood	oral, 10 mg twice daily, day 4	–	change from baseline	-1.47%
CO[C@H]1CC[C@H](N2C(=O)CNc3ncc(-c4ccc(C(C)(C)O)nc4)nc32)CC1	–	flow cytometry	stimulated T cells, human, blood	45 mg single dose, 3 h, median	relative to: baseline	p4EBP1 change from baseline	-55.7%
C=CCn1c(=O)c2cnc(Nc3ccc(N4CCN(C)CC4)cc3)nc2n1-c1ccc2c(n1)[C@@](O)(CC)CC2	–	–	A-427 xenograft, NOD/SCID mouse	80 mg/kg once daily	–	tumour growth inhibition	133%
O=C1Nc2cc3[nH]nc(-c4ccncc4)c3cc2CN1Cc1ccccc1	–	RECIST v1.1	human, relapsed or refractory advanced solid tumours	intravenous, 9.6 mg/kg, pooled schedules	–	stable disease, best response	22%

Repeated from above:
Compound	tested on	assay	test system	setting	how to read	quantity	value
NC(=O)CCNC(=O)c1ccc([C@H]2[C@@H](F)[C@@H](F)C[C@@H](F)[C@H]2F)cc1	–	hepatocyte stability	cryopreserved mouse hepatocytes	1 µM	–	hepatic clearance	21 mL/min/kg
N#Cc1ccn2c(-c3ccncc3)c(-c3ccc(F)cc3)nc2c1	–	kinase binding, competitor, MIB/MS competition, refers to: RIO2	Candida albicans cell lysate	100 nM	relative to: DMSO	log2 fold change	-0.234
